Assay results pooled from the literature.
Numbers after ± are the reported error.

| Compound | cell line | test | test system | setting | how to read | quantity | value |
| --- | --- | --- | --- | --- | --- | --- | --- |
| CO/C(=C\C(=O)c1ccc2occc2c1OC)c1ccccc1 | differentiated SH-SY5Y | MTT | – | 0.1 µM | baseline: control | viability | 102 ± 4.6% |
| N=C(N)NCCC[C@H](NC(=O)[C@H](CCCNC(=N)N)NC(=O)[C@H](CCCNC(=N)N)NC(=O)[C@H](CCC(N)=O)NC(=O)[C@H](CCCNC(=N)N)NC(=O)[C@H](CCCNC(=N)N)NC(=O)[C@H](CCCCN)NC(=O)[C@H](CCCCN)NC(=O)[C@H](CCCNC(=N)N)NC(=O)[C@H](Cc1c[nH]c2ccccc12)NC(=O)[C@H](Cc1c[nH]c2ccccc12)NC(=O)[C@@H](N)CSSC[C@H](N)C(=O)N[C@@H](Cc1c[nH]c2ccccc12)C(=O)N[C@@H](Cc1c[nH]c2ccccc12)C(=O)N[C@@H](CCCNC(=N)N)C(=O)N[C@@H](CCCCN)C(=O)N[C@@H](CCCCN)C(=O)N[C@@H](CCCNC(=N)N)C(=O)N[C@@H](CCCNC(=N)N)C(=O)N[C@@H](CCC(N)=O)C(=O)N[C@@H](CCCNC(=N)N)C(=O)N[C@@H](CCCNC(=N)N)C(=O)N[C@@H](CCCNC(=N)N)C(=O)NCC(N)=O)C(=O)NCC(N)=O | sample A primary mouse astrocytes | – | – | concentration not given, 1 h | – | SYTOX green-positive cells | < 15% |
| N=C(N)c1ccc2nc(-c3ccc(-c4nc5ccc(C(=N)N)cc5[nH]4)[se]3)[nH]c2c1 | HEK293 cells | viability, resazurin reduction | – | 24 h, 10% fetal bovine serum | up to | maximum non-toxic concentration | > 10 µM |
| CC(C)(O)c1cc2c(ccc3c(=O)cc(-c4ccccc4)oc32)o1 | differentiated SH-SY5Y | MTT | – | 100 µM | baseline: control | viability | 85.4 ± 1.1% |
| CCCCn1cc(C(=O)O)c(=O)c2cc(F)c(Nc3ccccc3Cl)c([N+](=O)[O-])c21 | PANC-1 | cell growth, SRB | – | 72 h | – | IC50 | 49.5 ± 3.91 µg/mL |
| CC[C@H](C)[C@H](NC(=O)[C@@H](CCCCN)NC(=O)[C@H](CCCCN)NC(=O)[C@H](Cc1ccccc1)NC(=O)[C@H](CC(C)C)NC(=O)[C@@H](CCCCN)NC(=O)[C@H](Cc1c[nH]c2ccccc12)NC(=O)[C@H](CCCCN)NC(C)=O)C(=O)NCC(=O)N[C@@H](C)C(=O)N[C@H](C(=O)N[C@@H](CC(C)C)C(=O)N[C@@H](CCCCN)C(=O)N[C@H](CCCCN)C(=O)N[C@@H](CC(C)C)C(N)=O)C(C)C | RAW264.7 | cell viability, MTT | – | 1 h, 37 °C | – | LD50 | 126 ± 11 µM |
| N=C(N)NCCC[C@@H]1NC(=O)[C@H](Cc2csc3ccccc23)NC(=O)[C@@H](Cc2ccccc2)NC(=O)[C@H](Cc2ccccc2)NC(=O)[C@H](CCC(=O)NCCOCCOCC(=O)N[C@@H](CCCCNC(=O)c2ccc3c(c2)C(=O)OC32c3ccc4cc(O)ccc4c3Oc3c2ccc2cc(O)ccc32)C(N)=O)NC(=O)[C@@H](CCCNC(=N)N)NC(=O)[C@H](CCCNC(=N)N)NC(=O)[C@@H](CCCNC(=N)N)NC1=O | HeLa | cell penetration, flow cytometry | – | 1.0 µM, 2 h, 1% FBS | baseline: CPP12 | cytosolic entry | 145 ± 21% |
| CC(=O)N[C@@H](CO)C(=O)N[C@@H](CC(=O)O)C(=O)N[C@@H](CCCCNC(=O)CCCC[C@@H]1SC[C@@H]2NC(=O)N[C@@H]21)C(=O)N1CCC[C@H]1C(=O)O | A549 | flow cytometry | – | 40 µg/mL, 15 min, 37 °C | baseline: cells | cellular uptake | 17.7 ± 0.5% |
| COc1cc2c(cc1OC)C(=O)C(=Cc1ccc(N3CCN(C)CC3)cc1)C2 | B16 | cell viability, MTT | – | 48 h | – | LD50 | 24 µM |
| COC(=O)C1CN1S(=O)(=O)c1cccc2ccccc12 (stereo not drawn) | Balb/c 3T3 fibroblasts | cytotoxicity, neutral red uptake | DMEM with 5% FBS | 24 h | – | IC50 | 81 ± 10 µM |
| C[C@H](NC(=O)[C@H](CCCCN)NC(=O)[C@H](CCCCN)NC(=O)[C@H](CCCCN)NC(=O)[C@H](CCCCN)NC(=O)[C@@H](NC(=O)[C@H](C)NC(=O)[C@H](C)NC(=O)[C@H](Cc1ccc(O)cc1)NC(=O)[C@H](C)NC(=O)CNC(=O)CNC(=O)c1ccc2c(c1)C1(OC2=O)c2ccc(O)cc2Oc2cc(O)ccc21)[C@@H](C)O)C(N)=O | OPM-2 | peptidase degradation, capillary electrophoresis | cell lysate | 10 µM, pH 7.6, 37 °C | – | half-life | 4 min |
| CC(C)=C1CC[C@]23CO[C@H](C2)[C@@](O)(C(=O)O)CC[C@@H]13 | A-375 | CellTiter-Glo | – | up to 500 µM, 72 h | – | cytotoxicity | not toxic |
| CCCCn1cc(C(=O)O)c(=O)c2cc(F)c(Nc3cccc(Cl)c3)c([N+](=O)[O-])c21 | PANC-1 | cell growth, SRB | – | 72 h | – | IC50 | 21.3 ± 2.63 µg/mL |
| COC1=C[C@@H]2[C@@H]3Cc4ccc(OC)c(OC(=O)[C@H](Cc5ccccc5)NC(=O)OC(C)(C)C)c4[C@]2(CCN3C)CC1=O | RAW264.7 | cytotoxicity, MTT | – | 24 h | – | IC50 | 29.6 ± 7.48 µM |
| CCCCn1cc(C(=O)O)c(=O)c2cc(F)c3c(nnn3-c3cccc(Cl)c3)c21 | K562 | cell growth or viability, SRB | – | – | – | IC50 | 342 µM |
| COC1(c2ccccc2)CC(=O)c2c(cc3c(c2O)C=CC(C)(C)O3)O1 (stereo not drawn) | differentiated SH-SY5Y | MTT | – | 100 µM | baseline: control | viability | 76.3 ± 4.7% |
| CC1OCC2OC(OC3C(N)CC(N)C(O)C3OC3OC(CO)C(OC4OC(CN)C(O)C(O)C4N)C3O)C(N)C(O)C2O1 (stereo not drawn) | NIH 3T3 | alamarBlue | – | concentration not given | – | cytotoxicity | not toxic |
| C(#Cc1cncc(OC[C@@H]2CCN2)c1)c1ccccc1 | Caco-2 | Caco-2 permeability | – | 100 µM, 2 h, pH 7.4, added: verapamil 100 µM | baseline: Papp B to A over A to B | efflux ratio | ~1 |
| CC1(C)C=Cc2c(ccc3c(=O)cc(-c4ccccc4)oc23)O1 | differentiated SH-SY5Y | MTT | – | 0.1 µM | baseline: control | viability | 97.1 ± 3.8% |
| COC(=O)C1CN1S(=O)(=O)c1cccc(C)c1 (stereo not drawn) | Balb/c 3T3 fibroblasts | cytotoxicity, neutral red uptake | DMEM with 5% FBS | 24 h | – | IC50 | 190 ± 3 µM |
| COc1c(C(=O)/C=C(\O)c2ccccc2)ccc2c1C=CC(C)(C)O2 | differentiated SH-SY5Y | MTT | – | 10 µM | baseline: control | viability | 101 ± 1.4% |
| CN(C(=O)CN1CCCC2=CC3CC(CN4CCCCC34)C21)c1ccc(Br)cc1 (stereo not drawn) | Huh-7 | cytotoxicity | – | – | – | CC50 | > 267 µM |
| CCCCn1cc(C(=O)O)c(=O)c2cc(F)c(Nc3cccc(Cl)c3)c(N)c21 | T47D | cell growth, SRB | – | 72 h | – | IC50 | 6.02 ± 0.19 µg/mL |
| Nc1ncnc2c1c(Br)cn2[C@@H]1O[C@H](CO)[C@@H](O)[C@H]1O | MRC-5 SV2 | cytotoxicity, resazurin | medium with 5% FBS | 72 h | – | EC50 | 12 ± 2 µM |
| CCCCn1cc(C(=O)O)c(=O)c2cc(F)c(Nc3ccccc3Cl)c(N)c21 | K562 | cell growth or viability, SRB | – | – | – | IC50 | 76.4 µM |
| CC(=O)N(O)CCCP(=O)(O)O | L5178Y TK+/- mouse lymphoma | – | – | 2200 µg/mL, 4 h, with S9 | baseline: vehicle | relative cell count | 116% |
| COc1c2c(cc3oc(-c4ccccc4)cc(=O)c13)OC(C)(C)C=C2 | differentiated SH-SY5Y | MTT | – | 10 µM | baseline: control | viability | 95.3 ± 1.5% |
| CC[C@H](C)[C@H](NC(=O)[C@H](CCCCN)NC(=O)[C@H](C)NC(=O)[C@H](CCCNC(=N)N)NC(=O)[C@H](CCCCN)NC(=O)[C@H](CC(N)=O)NC(=O)[C@H](CCC(N)=O)NC(=O)[C@H](Cc1ccccc1)NC(=O)[C@H](Cc1c[nH]c2ccccc12)NC(=O)[C@@H](NC(=O)[C@H](CCCCN)NC(=O)[C@@H](NC(=O)[C@H](CCC(N)=O)NC(=O)[C@H](CO)NC(=O)[C@H](CC(C)C)NC(=O)[C@H](CCC(N)=O)NC(=O)[C@H](C)NC(=O)[C@H](CCCNC(=N)N)NC(=O)[C@@H](NC(=O)[C@H](Cc1ccccc1)NC(=O)[C@@H](NC(=O)[C@@H](NC(=O)[C@H](CCCNC(=N)N)NC(=O)[C@H](CCC(=O)O)NC(=O)[C@H](CCCNC(=N)N)NC(=O)[C@H](CCCNC(=N)N)NC(=O)[C@H](CCC(N)=O)NC(=O)[C@H](CCCCN)NC(=O)[C@H](CCCNC(=N)N)NC(=O)CNC(=O)CNC(=O)CNC(=O)CNC(=O)CNC(=O)CCCC[C@@H]1SC[C@@H]2NC(=O)N[C@@H]21)[C@@H](C)O)[C@@H](C)O)[C@@H](C)O)[C@@H](C)CC)[C@@H](C)CC)C(=O)N[C@@H](CCCCN)C(=O)N[C@@H](CCCCN)C(N)=O | Caov-3 | MALDI-TOF MS | – | 7 µM, 1 h, 37 °C | baseline: Caov-3 over CHO-K1 | cellular uptake ratio | ~3 fold |
| COc1cc2c(=O)cc(-c3ccccc3)oc2c2c1OC(C)(C)C=C2 | differentiated SH-SY5Y | MTT | – | 10 µM | baseline: control | viability | 98.5 ± 2.1% |
| COC(=O)[C@H](CO)NC(=O)[C@H](CCCCN(CC(C)C)C1CC2CCC1C2)NC(=O)[C@H](CCCN1CCOCC1)NC(=O)[C@H](C1CCC1)N(C)C(=O)[C@H](Cc1ccccc1)NC(=O)c1ccc(C(C)(C)C)cc1 (stereo partly drawn) | mouse embryonic stem cells | cytotoxicity, CellTiter-Glo | – | 48 h | – | DC50 | 3.6 ± 1.8 µM |

Excerpt of the above:
| Compound | cell line | test | test system | setting | how to read | quantity | value |
| --- | --- | --- | --- | --- | --- | --- | --- |
| COc1c(C(=O)/C=C(\O)c2ccccc2)ccc2c1C=CC(C)(C)O2 | differentiated SH-SY5Y | MTT | – | 10 µM | baseline: control | viability | 101 ± 1.4% |
| CN(C(=O)CN1CCCC2=CC3CC(CN4CCCCC34)C21)c1ccc(Br)cc1 (stereo not drawn) | Huh-7 | cytotoxicity | – | – | – | CC50 | > 267 µM |
